Published values collected from several papers.
Lines come from different studies, so protocols differ.
Organism: Streptococcus pneumoniae

Cc1ccc2[nH]c3c(c2c1)CCCC3NCCc1ccc(Br)cc1 (centres unmarked)
MIC (broth microdilution; TIGR4): 2 µg/mL

Oc1c(Br)cc(Br)c2nc3ccccc3nc12
MIC (broth microdilution; 6303; 16 h, 37 °C): 1170 nM

CC(C)C[C@@H](NC(=O)[C@H](C)NC(=O)CNC(=O)[C@@H](NC=O)C(C)C)C(=O)N[C@@H](C)C(=O)N[C@@H](C(=O)N[C@H](C(=O)N[C@@H](C(=O)N[C@@H](Cc1c[nH]c2ccccc12)C(=O)N[C@H](CC(C)C)C(=O)N[C@@H](Cc1ccc2cc[nH]c2c1)C(=O)N[C@H](CC(C)C)C(=O)N[C@@H](Cc1c[nH]c2ccccc12)C(=O)N[C@H](CC(C)C)C(=O)N[C@@H](Cc1c[nH]c2ccccc12)C(=O)NCCO)C(C)C)C(C)C)C(C)C
MIC (broth microdilution; NBRC 102642): 4.2 nM

CCCC(=O)CP(=O)(O)O
MIC: 200 µg/mL

CN[C@H](CC(C)C)C(=O)N[C@H]1C(=O)N[C@@H](CC(N)=O)C(=O)N[C@H]2C(=O)N[C@H]3C(=O)N[C@H](C(=O)N[C@H](C(=O)O)c4cc(O)cc(O)c4-c4cc3ccc4O)[C@H](O)c3ccc(c(Cl)c3)Oc3cc2cc(c3O[C@@H]2O[C@H](CO)[C@@H](O)[C@H](O)[C@H]2O[C@H]2C[C@](C)(N)[C@H](O)[C@H](C)O2)Oc2ccc(cc2Cl)[C@H]1O
MIC (ATCC 700677, multidrug-resistant, CAMHB, lysed horse blood): 1.5 µg/mL

CC(C)C[C@@H](NC(=O)[C@H](C)NC(=O)CNC(=O)[C@@H](NC=O)C(C)C)C(=O)N[C@@H](C)C(=O)N[C@@H](C(=O)N[C@H](C(=O)N[C@@H](C(=O)N[C@@H](Cc1c[nH]c2ccccc12)C(=O)N[C@H](CC(C)C)C(=O)N[C@@H](Cc1cc2ccccc2[nH]1)C(=O)N[C@H](CC(C)C)C(=O)N[C@@H](Cc1c[nH]c2ccccc12)C(=O)N[C@H](CC(C)C)C(=O)N[C@@H](Cc1c[nH]c2ccccc12)C(=O)NCCO)C(C)C)C(C)C)C(C)C
MIC (broth microdilution; NBRC 102642): 8.3 nM

CCCCCCCC/C=C\CCCCCCCCNC(=O)CP(=O)(O)O
MIC: > 200 µg/mL

CC(C)C[C@@H](NC(=O)[C@H](C)NC(=O)CNC(=O)[C@@H](NC=O)C(C)C)C(=O)N[C@@H](C)C(=O)N[C@@H](C(=O)N[C@H](C(=O)N[C@@H](C(=O)N[C@@H](Cc1c[nH]c2ccccc12)C(=O)N[C@H](CC(C)C)C(=O)N[C@@H](Cc1cccc2[nH]ccc12)C(=O)N[C@H](CC(C)C)C(=O)N[C@@H](Cc1c[nH]c2ccccc12)C(=O)N[C@H](CC(C)C)C(=O)N[C@@H](Cc1c[nH]c2ccccc12)C(=O)NCCO)C(C)C)C(C)C)C(C)C
MIC (broth microdilution; NBRC 102642): 4.2 nM

Cc1ccc2[nH]c3c(c2c1)CCCC3NCCc1ccc(O)cc1 (centres unmarked)
MIC (broth microdilution; TIGR4): 2 to 4 µg/mL

c1ccc2c(c1)nc(CNCC13CC4CC(CC(C4)C1)C3)n2CCC1CCOCC1
MIC (ATCC 49619): 8 µg/mL

CCCCCCCC/C=C\CCCCCCCC(=O)C(F)(F)P(=O)(O)O
MIC: > 200 µg/mL

CC[C@H]1OC(=O)[C@H](C)[C@@H](O[C@H]2C[C@@](C)(OC)[C@@H](O)[C@H](C)O2)[C@H](C)[C@@H](O[C@@H]2O[C@H](C)C[C@H](N(C)C)[C@H]2O)[C@](C)(O)C[C@@H](C)C(=O)[C@H](C)[C@@H](O)[C@]1(C)O
MIC (broth microdilution; ATCC 49619, penicillin intermediate; overnight, 37 °C): < 1 µg/mL

c1ccc(CCNC2CCCc3c2oc2ccc(-c4ccccc4)cc32)cc1 (centres unmarked)
MIC (T4; C+Y medium): 50000 nM

CCCCCCCC(=O)NP(=O)(O)O
MIC: > 200 µg/mL

Repeated from above:
CC[C@H]1OC(=O)[C@H](C)[C@@H](O[C@H]2C[C@@](C)(OC)[C@@H](O)[C@H](C)O2)[C@H](C)[C@@H](O[C@@H]2O[C@H](C)C[C@H](N(C)C)[C@H]2O)[C@](C)(O)C[C@@H](C)C(=O)[C@H](C)[C@@H](O)[C@]1(C)O
MIC (broth microdilution; ATCC 49619, penicillin intermediate; overnight, 37 °C): < 1 µg/mL
